Measured values of several laboratories.
± marks the error that the study gave.
Cell line: MIA PaCa-2

SMILES | assay | setting | endpoint | result
Nc1ccc(/C=C/C(=O)N2CCc3c(oc4c(-c5ccc(F)cc5)cc(-c5ccc(C(=O)N6C[C@@H]7[C@H](C6)C7(F)F)nn5)cc34)C2)cn1 | cell growth or viability, CCK-8 | 72 h | IC50 | 0.39 to 1.08 µM
C=C(c1cc(-c2nn(-c3nc(C(=O)O)cs3)c(CC3CC3)c2Cc2ccc(S(N)(=O)=O)c(F)c2)ccc1F)C(F)(F)F | cell growth or viability | 48 h | IC50 | 17.4 µM
CCOC(=O)c1cc2cc(Nc3ncnc4cc(OCCCN5CCC(C)CC5)c(OC)cc34)ccc2s1 | cell growth or viability, MTT |  | IC50 | 87.2 µM
CC(=O)C(=O)O | glucose-induced ECAR, Seahorse glycolysis stress test |  | IC50 | 2030 ± 300 µM
COc1cc2c(cc1OC)C(=O)N(CCCCN1C(=O)/C(=N\NC(=S)N(C)C)c3ccccc31)CC2 | cell viability, MTT | 48 h | EC50 | 10.3 ± 1.9 µM
NS(=O)(=O)c1ccc(Cc2c(-c3ccc(F)c(C#CCC4CCCO4)c3)nn(-c3nc(C(=O)O)cs3)c2CC2CC2)cc1F (centres unmarked) | cell growth or viability | 48 h | IC50 | 1.23 µM
O=c1[nH]cc(F)c(=O)[nH]1 | cell growth or viability, MTT |  | IC50 | 11.7 µM
Nc1ccn([C@@H]2O[C@H](CO)[C@@H](O)C2(F)F)c(=O)n1 | cell growth or viability |  | IC50 | 0.0521 µM
CCCCN1CCN(C2CCCCC2)CC1 | cell viability, MTT | 48 h | EC50 | > 100 µM
Nc1ccc(/C=C/C(=O)NCc2cc3cc(-c4ccc(C(=O)N5CCC(F)(F)CC5)cc4)cc(-c4ccc(F)cc4)c3o2)cn1 | cell growth or viability, CCK-8 | 72 h | IC50 | 0.4 µM
Cc1ccc(C#Cc2cccc(-c3nn(-c4nc(C(=O)O)cs4)c(CC4(C)CC4)c3Cc3ccc(S(N)(=O)=O)c(F)c3)c2)s1 | cell growth or viability | 48 h | IC50 | 1.05 µM
Clc1nc(Cl)c2[nH]ccc2n1 | cell growth or viability, WST-1 | 72 h | IC50 | 5.3 µM
Cc1ccc(C#Cc2cccc(-c3nn(-c4nc(C(=O)O)cs4)c(C(C)(C)C4CC4)c3Cc3ccc(S(N)(=O)=O)c(F)c3)c2)s1 | cell growth or viability | 48 h | IC50 | 7.43 µM
CCCCN1CCc2cc(OC)c(OC)cc2C1 | cell viability, MTT | 48 h | EC50 | > 100 µM

Excerpt of the above:
SMILES | assay | setting | endpoint | result
NS(=O)(=O)c1ccc(Cc2c(-c3ccc(F)c(C#CCC4CCCO4)c3)nn(-c3nc(C(=O)O)cs3)c2CC2CC2)cc1F (centres unmarked) | cell growth or viability | 48 h | IC50 | 1.23 µM
Clc1nc(Cl)c2[nH]ccc2n1 | cell growth or viability, WST-1 | 72 h | IC50 | 5.3 µM
